# Assay results pooled from the literature.
# Compare with care: the assays were run in different laboratories. Values joined by “and” are separate records of one study, mostly repeats; a detail may differ. ± gives the spread as reported.
Compound,assay,system,conditions,scale,quantity,result
CCCCCOc1ccc(-c2ccc(-c3ccc(C(=O)N[C@H]4C[C@@H](O)[C@@H](O)NC(=O)[C@@H]5[C@@H](O)[C@@H](C)CN5C(=O)[C@H]([C@@H](C)O)NC(=O)[C@H]([C@H](O)[C@@H](O)c5ccc(O)cc5)NC(=O)[C@@H]5C[C@@H](O)CN5C(=O)[C@H]([C@@H](C)O)NC4=O)cc3)cc2)cc1,population PK model,patients aged 5 to < sample A years,"intravenous, 3.0 mg/kg loading, 1.5 mg/kg once daily, median, weight-corrected",,Vss,0.78 L/kg
O=C(NCCS)c1cccc(C(=O)NCCS)c1,,"male Sprague-Dawley rat, plasma","intravenous, 1 mg/kg, 3 h",,concentration,82.4 ng/mL
CSc1nc2cc(Cl)c(Oc3cccc(Cl)c3Cl)cc2[nH]1,,human liver mitochondrial preparation,"1 µM, 30 min, 0.5 mg/mL protein",,percent metabolized,0%
CC(=O)CO,,glycerol,"dermal, toxicity-qualified",,specification limit,180 µg/mL
CC[C@H](C)[C@H](NC(=O)[C@H](CCCNC(=N)N)NC(=O)[C@H](CCCCN)NC(=O)[C@H](CC(C)C)NC(=O)[C@H](Cc1c[nH]c2ccccc12)NC(=O)[C@H](Cc1c[nH]c2ccccc12)NC(=O)[C@@H](N)Cc1c[nH]c2ccccc12)C(=O)N[C@@H](Cc1c[nH]c2ccccc12)C(=O)O,haemolysis,human erythrocytes,"1 h, 50% haemolysis",,LC50,30 µM
O[C@H]1CCCN[C@@H]1CCCn1cnc2c(Cl)c(Cl)ccc21,,"human, plasma","oral, 300 mg, single dose, healthy volunteers",,Vd/F,2360 L
CC(=O)[O][Pt]([NH2])([Cl])([Cl])([NH]C1CCCCC1)[O]C(C)=O,,"rhesus monkey, cerebrospinal fluid","intravenous infusion, 6 mg/kg, 1 h infusion",,Cmax,120 nM and 20 nM and 50 nM and 90 nM
COc1cccc2c1cc1c3c(cc4c(c32)OCO4)C(=O)N1,HPLC,"rat (Sprague-Dawley, male), isolated perfused kidney, urine",aristolochic acid I dosed at 50,,time of first detection in urine,10 min
CCCCCCCCCCCCCC[N+](C)(C)CCCCCCCCCCCCCC,ultrafiltration,human serum,,,unbound fraction in blood,0.123
CCOCN(C(=O)CCl)c1c(C)cccc1CC,LC-MS/MS,herbicide solution,"2 h, 23 °C, added: 254 nm UV exposure",,remaining amount,11.8 ± 0.01%
CN[C@@](C)(C[18F])C(=O)O,,"SCID mouse A549 xenograft, spleen","15 min, post injection",,tissue uptake,12 ± 4.4 %ID/g
O=c1nc(NO)ccn1[C@@H]1O[C@H](CO)[C@@H](O)[C@H]1O,microdialysis,"pregnant rat, blood, fetus, placenta, amniotic fluid","iv, 100 mg/kg of molnupiravir, added: NBMPR 10 mg/kg",relative to: molnupiravir alone,AUC,no effect
CC(C)C[C@H](NC(=O)[C@H](C)NC(=O)[C@H](CCC(=O)O)NC(=O)[C@H](CC(C)C)NC(=O)[C@H](C)NC(=O)[C@H](CCC(=O)O)NC(=O)[C@H](C)NC(=O)[C@H](CC(C)C)NC(=O)[C@H](C)NC(=O)[C@H](CCC(=O)O)NC(=O)[C@H](C)NC(=O)[C@H](CC(C)C)NC(=O)[C@H](Cc1c[nH]cn1)NC(=O)[C@H](CCC(=O)O)NC(=O)[C@H](C)NC(=O)[C@H](CC(C)C)NC(=O)[C@H](C)NC(=O)[C@H](CCC(=O)O)NC(=O)[C@H](C)NC(=O)[C@H](CC(C)C)NC(=O)[C@H](C)NC(=O)[C@H](CCC(=O)O)NC(=O)[C@H](C)NC(=O)[C@H](CC(C)C)NC(=O)[C@H](C)NC(=O)[C@H](C)NC(=O)[C@H](CCC(=O)O)NC(=O)[C@H](Cc1c[nH]c2ccccc12)NC(=O)c1ccc2c(c1)C(=O)OC21c2ccc(O)cc2Oc2cc(O)ccc21)C(=O)N[C@@H](C)C(=O)N[C@@H](C)C(=O)O,no effect,"Sprague-Dawley rat, excised skin","50 µmol/L, 37 °C, FAM-labelled CPP conjugate",relative to: free FAM,apparent skin permeability,no effect
O=C(O)c1cc(O)c(O)c(O)c1,,zebrafish embryo AB wild type,"immersion semi-static, 96 h",,LC50,24 µg/mL
CC(C)[C@H](NC(=O)[C@H](Cc1c[nH]c2ccccc12)NC(=O)[C@@H](N)CCCNC(=N)N)C(=O)N[C@@H](Cc1c[nH]c2ccccc12)C(=O)NCC(=O)NCC(=O)NCC(=O)NCC(=O)N[C@@H](CCCCN)C(=O)N[C@@H](CCCCN)C(=O)NCC(=O)NCC(=O)NCC(=O)NCC(=O)N[C@@H](Cc1c[nH]c2ccccc12)C(=O)N[C@H](C(=O)N[C@@H](Cc1c[nH]c2ccccc12)C(=O)N[C@@H](CCC(=O)O)C(=O)O)C(C)C,circular dichroism,phosphate buffer,pH 6.5,,Tm,51.8 ± 0.1 °C
CC[C@H](C)[C@H](NC(=O)[C@H](CC(C)C)NC(=O)[C@H](Cc1c[nH]c2ccccc12)NC(=O)[C@H](CCC(N)=O)NC(=O)[C@@H](NC(=O)[C@H](Cc1ccccc1)NC(=O)[C@H](C)NC(=O)[C@H](CCCCNC(=O)COCCOCCNC(=O)COCCOCCNC(=O)CC[C@H](NC(=O)CCCCCCCCCCCCCCCCCCC(=O)O)C(=O)O)NC(=O)[C@H](CCC(N)=O)NC(=O)[C@H](C)NC(=O)[C@@H](NC(=O)[C@H](CCCCN)NC(=O)[C@H](CC(=O)O)NC(=O)[C@H](CC(C)C)NC(=O)C(C)(C)NC(=O)[C@@H](NC(=O)[C@H](CO)NC(=O)[C@H](Cc1ccc(O)cc1)NC(=O)[C@H](CC(=O)O)NC(=O)[C@H](CO)NC(=O)[C@@H](NC(=O)[C@H](Cc1ccccc1)NC(=O)[C@@H](NC(=O)CNC(=O)[C@H](CCC(=O)O)NC(=O)C(C)(C)NC(=O)[C@@H](N)Cc1ccc(O)cc1)[C@@H](C)O)[C@@H](C)O)[C@@H](C)CC)[C@@H](C)CC)C(C)C)C(=O)N[C@@H](C)C(=O)NCC(=O)NCC(=O)N1CCC[C@H]1C(=O)N[C@@H](CO)C(=O)N[C@@H](CO)C(=O)NCC(=O)N[C@@H](C)C(=O)N1CCC[C@H]1C(=O)N1CCC[C@H]1C(=O)N1CCC[C@H]1C(=O)N[C@@H](CO)C(N)=O,,"human, severe hepatic impairment","subcutaneous, 5 mg",,tmax,24 h
c1cc2ccc3cccc4ccc(c1)c2c34,HPLC-fluorescence,"Wistar rat, male, jejunum","oral, 4 mg/kg, 24 h",,tissue concentration,28.3 ± 12.4 ng/g
O=c1[nH]c(Cc2ccccn2)nc2c1cnn2C1CCOCC1,,"healthy men, extensive metabolizers, plasma","oral, 200 mg single dose, tablet, geometric mean",,half-life,2.18 h
CC[C@H](C)[C@H](NC(=O)[C@@H](N)Cc1ccccc1)C(=O)NCC(=O)N[C@H](C(=O)N[C@@H](CC(C)C)C(=O)N[C@H](C(=O)N1CCC[C@H]1C(=O)N[C@@H](CC(C)C)C(=O)N[C@@H](C)C(=O)N[C@@H](CC(C)C)C(=O)NCC(=O)N[C@@H](C)C(=O)N[C@@H](CC(C)C)C(=O)N[C@H](C(=O)N[C@@H](CCCCN)C(=O)N[C@@H](CC(C)C)C(=O)N[C@@H](Cc1ccccc1)C(=O)N[C@@H](CCCCN)C(N)=O)[C@@H](C)O)[C@@H](C)CC)[C@@H](C)O,reversed-phase HPLC,,hydrophobicity measure,,retention time,10.6 min
CC(=O)N[C@H](CCCCNC(=O)C(C)F)C(=O)N[C@@H](CS)C(=O)N[C@@H](CS)C(=O)N[C@@H](CCC(=O)O)C(=O)N[C@@H](Cc1c[nH]cn1)C(=O)N[C@H](Cc1ccccc1)C(=O)N[C@@H](CCCNC(=N)N)C(=O)N[C@@H](Cc1c[nH]c2ccccc12)C(=O)N[C@@H](CS)C(=O)N[C@@H](CCCNC(=N)N)C(=O)N1CCC[C@H]1C(=O)N[C@H](C(N)=O)C(C)C (stereo partly drawn) [fluorine-18 labelled],,"C57BL/6 mice, male, B16-F10 tumour, intestine","intravenous, 2 h",,tissue uptake,1.14 ± 0.8 %ID/g
CC[C@H](C)[C@H](NC(=O)[C@@H](N)CCCNC(=N)N)C(=O)N[C@H](C(=O)N1CCC[C@H]1C(=O)N[C@@H](C)C(N)=O)C(C)C,,"healthy volunteers, both sexes, plasma","intravenous infusion, 6.5 mg/kg daily, day 7, multiple ascending dose",,Cmax,31400 ± 6670 ng/mL
CCCCCOc1ccc(-c2cc(-c3ccc(C(=O)N[C@H]4C[C@@H](O)[C@@H](O)NC(=O)[C@@H]5[C@@H](O)[C@@H](C)CN5C(=O)[C@H]([C@H](O)CC(N)=O)NC(=O)[C@H]([C@H](O)[C@@H](O)c5ccc(O)c(OS(=O)(=O)O)c5)NC(=O)[C@@H]5C[C@@H](O)CN5C(=O)[C@H]([C@@H](C)O)NC4=O)cc3)no2)cc1,,"human paediatric patients 2 to 5 years, plasma","intravenous, 4.5 mg/kg once daily, day 7, geometric mean",,Tmax,1.2 h
COc1ccc(C[C@@H]2NC(=O)[C@H]([C@@H](C)O)NC(=O)[C@@H]3[C@@H]4CCN3C(=O)[C@@H]3Cc5cn(c6ccc(F)cc56)CCCCCCN(Cc5ccc(cc5)CCNC(=O)[C@]5(C)CCCN5C2=O)C(=O)CCC(=O)N[C@@H](C)C(=O)N[C@H](CNC(=O)CCCCC[N+](C)(C)C)C(=O)N[C@@H](Cc2cccc(c2)CNC(=O)CO4)C(=O)N3)cc1,,"fasted healthy men, plasma","oral, 200 mg single dose, 24 h, with 1800 mg Labrasol, median",,plasma concentration,9.91 nM
[123I]c1cncc(OC[C@@H]2CCN2)c1,SPECT,"human, pons","intravenous bolus, 7.35 mCi",relative to: plasma,tissue/plasma ratio,45.5

# Repeated from above:
Compound,assay,system,conditions,scale,quantity,result
CN[C@@](C)(C[18F])C(=O)O,,"SCID mouse A549 xenograft, spleen","15 min, post injection",,tissue uptake,12 ± 4.4 %ID/g
CSc1nc2cc(Cl)c(Oc3cccc(Cl)c3Cl)cc2[nH]1,,human liver mitochondrial preparation,"1 µM, 30 min, 0.5 mg/mL protein",,percent metabolized,0%
